Experimental data from different studies.
Compare with care: the assays were run in different laboratories.
UniProt Q00537, sequence (whole entry, looked up): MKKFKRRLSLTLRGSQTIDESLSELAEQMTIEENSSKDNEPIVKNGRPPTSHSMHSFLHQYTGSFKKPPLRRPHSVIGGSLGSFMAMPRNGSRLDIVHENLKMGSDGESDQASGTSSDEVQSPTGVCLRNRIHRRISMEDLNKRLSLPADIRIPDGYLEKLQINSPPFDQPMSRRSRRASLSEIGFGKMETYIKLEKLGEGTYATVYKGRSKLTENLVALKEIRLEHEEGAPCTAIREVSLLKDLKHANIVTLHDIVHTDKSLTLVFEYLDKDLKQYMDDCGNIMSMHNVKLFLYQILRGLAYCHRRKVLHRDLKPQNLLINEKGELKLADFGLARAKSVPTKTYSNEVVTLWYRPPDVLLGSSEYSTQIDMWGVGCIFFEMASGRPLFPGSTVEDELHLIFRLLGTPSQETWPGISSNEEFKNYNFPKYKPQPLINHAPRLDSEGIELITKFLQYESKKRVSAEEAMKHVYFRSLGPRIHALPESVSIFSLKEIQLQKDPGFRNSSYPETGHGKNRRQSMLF
UniProt Q9HBY8, sequence (whole entry, looked up): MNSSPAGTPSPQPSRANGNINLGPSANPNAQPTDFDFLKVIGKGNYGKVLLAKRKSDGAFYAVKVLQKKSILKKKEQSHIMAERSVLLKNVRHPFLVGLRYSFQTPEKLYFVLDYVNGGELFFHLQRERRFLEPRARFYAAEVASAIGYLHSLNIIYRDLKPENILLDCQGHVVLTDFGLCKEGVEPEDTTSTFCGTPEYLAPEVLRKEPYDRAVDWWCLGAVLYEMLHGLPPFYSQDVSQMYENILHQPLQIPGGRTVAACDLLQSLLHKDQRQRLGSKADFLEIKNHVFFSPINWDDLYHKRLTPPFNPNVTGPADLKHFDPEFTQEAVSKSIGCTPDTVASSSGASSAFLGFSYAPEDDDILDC
UniProt Q07002, sequence (whole entry, looked up): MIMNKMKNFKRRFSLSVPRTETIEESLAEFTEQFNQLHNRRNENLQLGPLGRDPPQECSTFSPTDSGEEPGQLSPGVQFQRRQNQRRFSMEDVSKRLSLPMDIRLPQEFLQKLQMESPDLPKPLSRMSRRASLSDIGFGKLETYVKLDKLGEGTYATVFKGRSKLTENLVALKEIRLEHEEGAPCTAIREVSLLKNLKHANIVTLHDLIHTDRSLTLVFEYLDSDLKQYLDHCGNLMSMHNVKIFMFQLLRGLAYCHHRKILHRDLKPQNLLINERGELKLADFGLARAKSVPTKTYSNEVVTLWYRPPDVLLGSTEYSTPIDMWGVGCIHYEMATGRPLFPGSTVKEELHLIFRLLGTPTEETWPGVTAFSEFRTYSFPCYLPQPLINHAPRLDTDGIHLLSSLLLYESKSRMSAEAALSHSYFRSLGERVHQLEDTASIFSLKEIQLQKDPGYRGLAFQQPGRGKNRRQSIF
UniProt P10721, sequence (whole entry, unmodified, looked up): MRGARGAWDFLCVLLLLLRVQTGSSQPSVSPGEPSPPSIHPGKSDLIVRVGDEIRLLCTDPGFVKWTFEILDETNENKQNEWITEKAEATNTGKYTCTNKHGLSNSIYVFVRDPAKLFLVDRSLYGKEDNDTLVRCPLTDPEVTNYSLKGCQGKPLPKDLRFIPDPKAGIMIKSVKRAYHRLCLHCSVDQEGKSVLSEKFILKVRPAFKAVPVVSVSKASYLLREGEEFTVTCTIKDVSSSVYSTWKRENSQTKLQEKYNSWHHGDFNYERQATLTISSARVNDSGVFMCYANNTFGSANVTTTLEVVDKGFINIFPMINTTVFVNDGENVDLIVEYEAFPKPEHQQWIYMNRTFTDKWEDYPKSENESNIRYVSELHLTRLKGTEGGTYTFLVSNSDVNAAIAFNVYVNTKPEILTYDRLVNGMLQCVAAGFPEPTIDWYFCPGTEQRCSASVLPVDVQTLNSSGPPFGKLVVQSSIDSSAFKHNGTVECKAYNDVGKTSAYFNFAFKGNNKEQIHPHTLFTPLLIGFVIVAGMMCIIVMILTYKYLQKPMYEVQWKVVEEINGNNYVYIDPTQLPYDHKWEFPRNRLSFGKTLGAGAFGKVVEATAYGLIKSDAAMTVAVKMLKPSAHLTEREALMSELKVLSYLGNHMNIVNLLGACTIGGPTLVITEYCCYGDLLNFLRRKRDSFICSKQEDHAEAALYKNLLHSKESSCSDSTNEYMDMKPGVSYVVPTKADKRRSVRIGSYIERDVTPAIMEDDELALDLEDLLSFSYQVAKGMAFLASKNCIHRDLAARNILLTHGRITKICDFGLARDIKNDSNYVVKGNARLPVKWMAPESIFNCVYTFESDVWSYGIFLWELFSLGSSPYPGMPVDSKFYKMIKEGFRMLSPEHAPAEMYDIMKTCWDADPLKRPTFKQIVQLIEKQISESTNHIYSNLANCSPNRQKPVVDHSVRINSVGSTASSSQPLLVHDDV

Structure (SMILES) | target or system | test | test system | conditions | measurement | result
CC(=O)c1c(C)c2cnc(Nc3ccc(C4CCN(CCS(C)(=O)=O)CC4)cn3)nc2n(C2CCCC2)c1=O | – | general toxicity | beagle dog | oral, multiple doses | NOAEL | 2 mg/kg/day
O=C(Nc1cccnn1)N1CCN([C@@H]2CCOc3cc(C(F)(F)F)ccc32)CC1 | – | – | male Sprague-Dawley rat, plasma | oral, 1 mg/kg, 4 h | concentration | 100 ng/mL
CC(C)(N)CNC(=O)O[C@@H]1CCC[C@]2(C1)OOC1(O2)C2CC3CC(C2)CC1C3 (stereo partly shown) | – | – | male CD-1 mouse, plasma | oral, 10 mg/kg | Cmax | 147 ng/mL
CN(C)C1(CNC(=O)c2ccc3c(c2)CCN3C(=O)c2ccccc2)CCOCC1 | – | – | male C57BL/6 mouse, plasma | intraperitoneal, 50 mg/kg, 2 h | concentration | 133 ng/mL
CC(C)C[C@H](NC(=O)[C@H](Cc1ccccc1)NC(=O)[C@H](Cc1ccccc1)NC(=O)Cc1ccc(-c2ccccc2)cc1)C(=O)N[C@@H](CCCCN)C(=O)N[C@@H](CCCNC(=N)N)C(=O)N[C@H](C(=O)N[C@@H](Cc1c[nH]c2ccccc12)C(=O)N[C@@H](CCCCN)C(=O)N[C@@H](CCCNC(=N)N)C(=O)O)C(C)C | – | metabolic stability, mass spectrometry | mouse, liver microsomes | 1 h | compound remaining | 9.98%
[18FH] | – | – | mouse, bone | intravenous, 1 h | tracer uptake | 12 %ID/g
CC(C)CC(=O)OC[C@H]1O[C@@](C#N)(c2ccc3c(N)ncnn23)[C@H](O)[C@@H]1O | – | metabolic stability | dog, hepatocytes | 5 µM | half-life | < 0.0727 h
CC[C@H](C)CCCCC(=O)N[C@@H](CCN)C(=O)N[C@H](C(=O)N[C@@H](CCN)C(=O)N[C@H]1CCNC(=O)[C@H]([C@@H](C)O)NC(=O)[C@H](CCN)NC(=O)[C@H](CCN)NC(=O)[C@H](CC(C)C)NC(=O)[C@@H](CC(C)C)NC(=O)[C@H](CCN)NC1=O)[C@@H](C)O | – | – | male Sprague-Dawley rat, plasma | subcutaneous, 10 mg/kg | Cmax | 2750 ng/mL
[2H]c1c([2H])c([C@]2([2H])CCCN2C(=O)C(C)(C)Oc2ccc3cn[nH]c3c2)c([2H])c([2H])c1C([2H])([2H])[2H] | SGK2 (Homo sapiens, UniProt Q9HBY8) | binding, competition with immobilised ligand | – | 1 µM | remaining binding | 84%
Cl.Cn1c(=O)n(CCCCN2CCC3(CC2)OCc2ccccc23)c2ccccc21 | – | – | male Sprague-Dawley rat, plasma | intravenous, 5 mg/kg | AUC | 3850 ng·h/mL
Cc1nn(C)cc1-c1nc2c(N3CCN(Cc4ccc(Cl)cc4)CC3)c(Cl)cnc2[nH]1 | KIT (Homo sapiens, UniProt P10721, V559D) | binding, competition with immobilised ligand | – | 1 µM | remaining binding | 2.5%
COc1ncccc1-c1cnn2ccc(N3CCN(C(=O)OC(C)C)CC3)nc12 | CDK18 (Homo sapiens, UniProt Q07002) | binding, competition with immobilised ligand | – | 1 µM | remaining binding | 100%
N=C(N)NCCC[C@@H](NC(=O)[C@@H](N)Cc1ccccc1)C(=O)N[C@@H](Cc1ccccc1)C(=O)N[C@@H](CCCCN)C(N)=O | – | – | human, plasma | subcutaneous, 25 mg, multiple doses, once daily, patients | AUC(0-t) | 5220 ng·h/mL
Cc1cc(C)nc(Nc2ncc(C(=O)NCCc3c(C)[nH]c4ccccc34)cn2)c1 | – | metabolic stability | beagle dog, hepatocytes | 1 µM | half-life | 1.3 h
CCC[C@@](N)(CO)CCc1ccc(OCCCCCC(C)C)cc1 | – | – | mouse, plasma | oral, 50 mg/kg | Cmax | 1370 nM
C#Cc1n[nH]c2c(-c3cn(C(C)c4ccccn4)c(=O)[nH]c3=O)cc(F)cc12 (stereo not shown) | Cyclin-dependent kinase 2, with cyclin A (CDK2, Homo sapiens, UniProt P24941) | enzyme activity, inhibitor | – | 1 µM | inhibition | 7.7%
Nc1nc(-c2ccccc2)nc2[nH]nc(Nc3ccc(C(F)(F)F)cc3)c12 | – | – | mouse, plasma | oral, 100 mg/kg, 3 h | concentration | 1250 ng/mL
Nc1ncc(-c2nc(N3CCOCC3)nc(N3CCOCC3)n2)c(C(F)F)n1 | CDK17 (Homo sapiens, UniProt Q00537) | binding, competition with immobilised ligand | – | 10 µM | remaining binding | 100%
N.N.[Cl][Pt][Cl] | P3HR-1 | cell growth or viability, ATP luminescence | – | 72 h | IC50 | 5.6 µM

Some of these lines once more:
Structure (SMILES) | target or system | test | test system | conditions | measurement | result
Nc1nc(-c2ccccc2)nc2[nH]nc(Nc3ccc(C(F)(F)F)cc3)c12 | – | – | mouse, plasma | oral, 100 mg/kg, 3 h | concentration | 1250 ng/mL
